Assay results pooled from the literature.

Structure (SMILES)	sample	tested at	pH	setting	measurement	value
CCn1cc(/C=C/c2sc3ccccc3[n+]2CC)c2ccccc21	MeOH	10 µM	–	–	absorption maximum	475 nm
CCOC(=O)c1[nH]c(C)c(/C=C/c2c(I)c(C)c3n2[B-](F)(F)[N+]2=C(C)C(I)=C(C)C2=C3c2cc(OC)cc(OC)c2)c1C	THF	–	–	–	absorption maximum	611 nm
CCCCN1C(=O)c2cccc3c(NCCCCCCN4CCOCC4)ccc(c23)C1=O	water	–	pH 6.0	–	absorption maximum	453 nm
Cc1ccc(-c2ccc(-c3cc4sccc4o3)cn2)nc1	acetonitrile	–	–	zinc-free ligand	absorption maximum	343 nm
CCn1cc(/C=C/c2ccc3ccccc3[n+]2CC)c2ccccc21	PBS	10 µM	–	–	absorption maximum	466 nm
COCCOCCOCCOc1ccc(/C=C/c2c(I)c(C)c3n2[B-](F)(F)[N+]2=C(C)C(I)=C(C)C2=C3c2cc(OC)cc(OC)c2)cc1	dichloromethane	–	–	–	absorption maximum	597 nm
COc1ccc(/C=C/c2ccc(-c3ccc(C)cn3)nc2)cc1	aqueous HEPES buffer	–	pH 7.4	zinc(II) complex	absorption maximum	368 nm
COc1cc(OC)cc(C2=C3C(C)=C(I)C(/C=C/c4cccs4)=[N+]3[B-](F)(F)n3c(/C=C/c4cccs4)c(I)c(C)c32)c1	dichloromethane	–	–	–	absorption maximum	670 nm
O=C([O-])CN1CCN(CC(=O)[O-])CCN(CC(=O)c2ccc(-c3ccc(OCC(=O)O)cc3)cc2)CCN(CC(=O)[O-])CC1.[Eu+3]	PBS	–	pH 7.4	–	absorption cut-off wavelength	403 nm

A few entries again:
Structure (SMILES)	sample	tested at	pH	setting	measurement	value
CCn1cc(/C=C/c2sc3ccccc3[n+]2CC)c2ccccc21	MeOH	10 µM	–	–	absorption maximum	475 nm
